Experimental data pooled from the literature.
Parts stem from different laboratories: compare values within a part only.
Chain of UniProt P61075 (whole entry, looked up): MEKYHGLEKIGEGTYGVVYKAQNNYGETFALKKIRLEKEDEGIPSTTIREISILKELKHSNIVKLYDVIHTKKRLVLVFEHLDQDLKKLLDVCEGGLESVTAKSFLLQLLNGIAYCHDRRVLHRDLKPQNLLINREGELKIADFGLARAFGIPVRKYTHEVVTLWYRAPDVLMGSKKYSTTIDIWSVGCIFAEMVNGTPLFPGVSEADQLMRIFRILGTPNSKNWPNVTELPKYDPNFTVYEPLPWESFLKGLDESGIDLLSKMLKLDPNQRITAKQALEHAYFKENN
Chain of UniProt Q96SW2 (whole entry, looked up): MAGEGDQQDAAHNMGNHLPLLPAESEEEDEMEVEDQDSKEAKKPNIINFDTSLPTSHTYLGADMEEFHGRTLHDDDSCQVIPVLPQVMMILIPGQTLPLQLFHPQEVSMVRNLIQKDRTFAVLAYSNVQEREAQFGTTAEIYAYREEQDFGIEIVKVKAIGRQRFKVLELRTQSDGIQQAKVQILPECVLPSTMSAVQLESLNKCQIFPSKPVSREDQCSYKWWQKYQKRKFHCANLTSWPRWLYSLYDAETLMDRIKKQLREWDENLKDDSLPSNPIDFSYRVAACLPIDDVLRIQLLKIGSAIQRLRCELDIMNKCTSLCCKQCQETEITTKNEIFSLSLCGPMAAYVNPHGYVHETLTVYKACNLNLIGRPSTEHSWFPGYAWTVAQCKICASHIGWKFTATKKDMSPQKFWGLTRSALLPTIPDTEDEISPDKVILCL
Chain of UniProt Q9UKS7 (whole entry, looked up): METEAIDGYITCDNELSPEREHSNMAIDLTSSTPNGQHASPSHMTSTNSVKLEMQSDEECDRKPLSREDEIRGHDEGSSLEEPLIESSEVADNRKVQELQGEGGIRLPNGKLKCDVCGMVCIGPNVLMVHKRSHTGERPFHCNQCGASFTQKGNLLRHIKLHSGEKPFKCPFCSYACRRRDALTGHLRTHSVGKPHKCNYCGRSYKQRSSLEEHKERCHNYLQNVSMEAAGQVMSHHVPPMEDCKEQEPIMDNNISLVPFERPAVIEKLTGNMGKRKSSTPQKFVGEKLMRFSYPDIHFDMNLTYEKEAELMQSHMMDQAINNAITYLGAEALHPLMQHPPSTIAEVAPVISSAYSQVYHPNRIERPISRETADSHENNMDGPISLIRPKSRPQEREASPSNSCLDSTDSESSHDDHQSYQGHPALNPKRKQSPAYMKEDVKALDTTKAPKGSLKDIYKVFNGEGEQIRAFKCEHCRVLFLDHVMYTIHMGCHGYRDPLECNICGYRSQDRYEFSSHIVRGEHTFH
Chain of UniProt P9WI81 (whole entry, looked up): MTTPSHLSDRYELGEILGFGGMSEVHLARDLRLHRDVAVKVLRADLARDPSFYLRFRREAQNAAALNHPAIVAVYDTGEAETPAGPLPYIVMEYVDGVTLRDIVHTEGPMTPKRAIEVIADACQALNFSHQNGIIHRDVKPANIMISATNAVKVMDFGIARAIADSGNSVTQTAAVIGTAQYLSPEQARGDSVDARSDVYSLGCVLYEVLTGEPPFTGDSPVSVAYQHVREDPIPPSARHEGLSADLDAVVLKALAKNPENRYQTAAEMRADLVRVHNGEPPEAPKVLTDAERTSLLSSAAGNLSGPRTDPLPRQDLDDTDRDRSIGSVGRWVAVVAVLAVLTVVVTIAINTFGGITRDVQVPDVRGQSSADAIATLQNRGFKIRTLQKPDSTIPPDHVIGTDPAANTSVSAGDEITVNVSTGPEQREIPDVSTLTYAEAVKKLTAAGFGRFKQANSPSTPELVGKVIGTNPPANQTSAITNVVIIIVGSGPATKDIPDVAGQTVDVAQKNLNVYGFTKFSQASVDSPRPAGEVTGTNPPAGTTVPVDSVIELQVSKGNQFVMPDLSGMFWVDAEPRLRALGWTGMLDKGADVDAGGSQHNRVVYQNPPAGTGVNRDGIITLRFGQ

Study 1
Observed: AlphaScreen signal
Technique: AlphaScreen counter screen
Medium: His6 peptide without bromodomain
Concentration: 50 µM
Notes: assay interference check
Measurement: inhibition
CCN1C(=O)NC(=O)C(=CNc2ccc(Cl)c(C(=O)O)c2)C1=O: 7.4%
CN1C(=O)C(=CNc2ccc(Cl)cc2)C(=O)NC1=S: 10.1%
Cc1cccc(NC=C2C(=O)NC(=O)N(c3ccc(F)cc3)C2=O)c1: 4.25%
CCOc1ccc(NC=C2C(=O)NC(=O)N(c3ccccc3)C2=O)cc1: 6.4%
Cc1cccc(N2C(=O)NC(=O)C(=CNc3ccc4c(c3)OCO4)C2=O)c1: 11.8%
COc1ccc2c(c[n+](C)c3c4cc5c(cc4ccc23)OCO5)c1OC: 2.75%
N#CC(C#N)=Cc1ccc(O)c(O)c1: 29.8%

Study 2
Target: DNA polymerase theta, ATPase domain (POLQ, Homo sapiens, UniProt O75417)
Chain of UniProt O75417 (whole entry, unmodified, looked up): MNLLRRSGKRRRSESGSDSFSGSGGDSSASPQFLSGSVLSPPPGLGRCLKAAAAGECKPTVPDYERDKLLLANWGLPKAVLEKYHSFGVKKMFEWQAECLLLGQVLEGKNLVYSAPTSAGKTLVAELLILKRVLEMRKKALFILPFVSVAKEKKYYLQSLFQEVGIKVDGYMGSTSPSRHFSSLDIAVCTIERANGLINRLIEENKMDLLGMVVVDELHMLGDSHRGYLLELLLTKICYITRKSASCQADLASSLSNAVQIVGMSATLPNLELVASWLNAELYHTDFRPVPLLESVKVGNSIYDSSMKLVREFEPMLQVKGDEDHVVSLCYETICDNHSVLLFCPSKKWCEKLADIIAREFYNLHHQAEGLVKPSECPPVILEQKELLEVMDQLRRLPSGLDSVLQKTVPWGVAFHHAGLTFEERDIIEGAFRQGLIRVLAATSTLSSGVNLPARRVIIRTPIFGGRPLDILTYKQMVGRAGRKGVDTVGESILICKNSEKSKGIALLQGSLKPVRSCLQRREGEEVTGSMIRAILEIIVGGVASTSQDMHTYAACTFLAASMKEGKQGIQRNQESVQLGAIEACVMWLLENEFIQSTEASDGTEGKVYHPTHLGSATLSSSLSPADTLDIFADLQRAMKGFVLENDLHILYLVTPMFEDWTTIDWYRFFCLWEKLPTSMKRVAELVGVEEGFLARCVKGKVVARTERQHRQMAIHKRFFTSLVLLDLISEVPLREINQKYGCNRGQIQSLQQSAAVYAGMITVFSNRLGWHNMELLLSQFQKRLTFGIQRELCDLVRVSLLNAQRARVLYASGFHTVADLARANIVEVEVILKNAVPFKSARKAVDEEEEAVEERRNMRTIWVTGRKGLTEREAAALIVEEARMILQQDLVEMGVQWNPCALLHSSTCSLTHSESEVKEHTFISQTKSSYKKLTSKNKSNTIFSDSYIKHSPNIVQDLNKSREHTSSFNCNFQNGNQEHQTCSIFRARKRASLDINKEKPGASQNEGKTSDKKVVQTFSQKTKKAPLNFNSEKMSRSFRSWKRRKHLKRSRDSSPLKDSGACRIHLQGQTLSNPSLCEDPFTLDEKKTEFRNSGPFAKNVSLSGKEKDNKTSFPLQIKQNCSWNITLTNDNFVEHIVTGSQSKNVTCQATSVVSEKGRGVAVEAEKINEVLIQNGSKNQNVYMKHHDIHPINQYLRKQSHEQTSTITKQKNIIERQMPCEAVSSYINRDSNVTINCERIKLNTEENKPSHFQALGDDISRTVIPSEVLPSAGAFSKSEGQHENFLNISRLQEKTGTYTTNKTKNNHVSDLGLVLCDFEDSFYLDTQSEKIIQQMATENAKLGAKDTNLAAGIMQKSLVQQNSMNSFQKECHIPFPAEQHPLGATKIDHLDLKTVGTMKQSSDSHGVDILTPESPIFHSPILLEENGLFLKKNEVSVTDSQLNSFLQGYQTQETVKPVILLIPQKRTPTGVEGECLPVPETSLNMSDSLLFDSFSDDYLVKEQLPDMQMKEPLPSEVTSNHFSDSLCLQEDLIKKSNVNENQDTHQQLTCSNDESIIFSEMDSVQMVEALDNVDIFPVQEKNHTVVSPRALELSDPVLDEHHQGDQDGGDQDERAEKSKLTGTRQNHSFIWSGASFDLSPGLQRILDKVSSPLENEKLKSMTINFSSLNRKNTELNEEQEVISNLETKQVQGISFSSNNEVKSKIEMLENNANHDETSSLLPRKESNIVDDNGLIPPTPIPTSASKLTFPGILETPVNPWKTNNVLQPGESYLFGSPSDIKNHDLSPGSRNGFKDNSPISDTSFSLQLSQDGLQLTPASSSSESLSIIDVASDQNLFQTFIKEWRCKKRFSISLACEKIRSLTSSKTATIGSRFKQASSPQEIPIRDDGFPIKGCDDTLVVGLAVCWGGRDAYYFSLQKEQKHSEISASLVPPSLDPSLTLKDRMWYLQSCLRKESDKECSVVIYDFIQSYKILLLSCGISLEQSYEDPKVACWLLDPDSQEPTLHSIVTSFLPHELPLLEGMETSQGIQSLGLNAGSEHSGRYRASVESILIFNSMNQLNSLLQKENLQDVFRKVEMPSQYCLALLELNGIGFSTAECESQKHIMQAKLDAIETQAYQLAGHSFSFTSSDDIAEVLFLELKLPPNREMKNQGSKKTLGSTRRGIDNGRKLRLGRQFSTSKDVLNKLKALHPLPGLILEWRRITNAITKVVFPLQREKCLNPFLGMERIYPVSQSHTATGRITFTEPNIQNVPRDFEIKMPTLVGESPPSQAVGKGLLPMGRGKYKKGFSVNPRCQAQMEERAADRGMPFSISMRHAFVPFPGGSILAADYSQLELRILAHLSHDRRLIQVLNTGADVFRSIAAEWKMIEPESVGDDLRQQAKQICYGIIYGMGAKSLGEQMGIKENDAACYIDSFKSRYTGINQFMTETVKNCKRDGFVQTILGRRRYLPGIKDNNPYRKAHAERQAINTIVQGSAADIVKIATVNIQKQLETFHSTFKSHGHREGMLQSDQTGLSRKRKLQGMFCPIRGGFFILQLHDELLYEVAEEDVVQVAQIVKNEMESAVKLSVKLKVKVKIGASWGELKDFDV
Observed: enzyme activity
Mode: inhibitor
Concentration: 77 µM
Reference: untreated
Measurement: remaining activity
CC(=O)OCC1=C(C(=O)O)N2C(=O)[C@@H](N)[C@H]2SC1: 98.4%
CCN1C[C@]2(C)CC[C@H](OC)[C@@]34C1[C@]1(OCO[C@@]15C[C@H](OC)[C@H]1C[C@]3(O)[C@@H]5[C@H]1OC)[C@@H](OC(C)=O)[C@H]24: 102%
NC[C@@H](O)c1ccc(O)cc1 (racemic): 102%
COc1ccc(N(C(=O)Oc2c(C)cccc2C)c2ccnc(Nc3ccc(N4CCN(C)CC4)cc3)n2)c(OC)c1: 101%

Mixed results
CC(=O)C1=C(C)N(c2cccc(C(F)(F)F)c2)C(=O)N[C@@H]1c1ccc(C#N)nc1  remaining binding (Cyclin-dependent kinase 2 homolog (CRK2, Plasmodium falciparum, UniProt P61075); cell-free assay, competition with immobilised ligand; 1 µM): 100%
O=C1CCC(N2Cc3c(ccc4c3OCC43CCN(CC4CCCCC4)CC3)C2=O)C(=O)N1 (centres unmarked)  protein remaining (CRBN/Zinc finger protein Helios (Homo sapiens, UniProt Q96SW2+Q9UKS7); degrader, HiBiT; HEK293; 13.72 nM): 64.2%
CCC(=N\O)/C(C)=C/c1ccc(F)cc1  remaining binding (Serine/threonine-protein kinase PknB (pknB, Mycobacterium tuberculosis, UniProt P9WI81); cell-free assay, competition with immobilised ligand; 1 µM): 100%

Excerpt of the above (study 1):
COc1ccc2c(c[n+](C)c3c4cc5c(cc4ccc23)OCO5)c1OC: 2.75%
N#CC(C#N)=Cc1ccc(O)c(O)c1: 29.8%
